Published values from different studies.
A part holds a random share of what one study measured.
Sequence of UniProt Q9HBY8 (whole entry, looked up): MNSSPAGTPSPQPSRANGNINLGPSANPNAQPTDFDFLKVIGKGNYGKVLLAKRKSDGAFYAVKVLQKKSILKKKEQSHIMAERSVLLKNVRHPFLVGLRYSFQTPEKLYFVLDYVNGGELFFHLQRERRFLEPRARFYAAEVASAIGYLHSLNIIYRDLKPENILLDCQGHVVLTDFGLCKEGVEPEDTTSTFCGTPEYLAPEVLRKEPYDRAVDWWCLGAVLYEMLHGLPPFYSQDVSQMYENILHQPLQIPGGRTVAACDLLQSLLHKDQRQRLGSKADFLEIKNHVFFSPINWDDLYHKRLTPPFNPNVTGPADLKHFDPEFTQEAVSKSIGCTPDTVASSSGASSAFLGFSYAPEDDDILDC
Sequence of UniProt P42680 (whole entry, looked up): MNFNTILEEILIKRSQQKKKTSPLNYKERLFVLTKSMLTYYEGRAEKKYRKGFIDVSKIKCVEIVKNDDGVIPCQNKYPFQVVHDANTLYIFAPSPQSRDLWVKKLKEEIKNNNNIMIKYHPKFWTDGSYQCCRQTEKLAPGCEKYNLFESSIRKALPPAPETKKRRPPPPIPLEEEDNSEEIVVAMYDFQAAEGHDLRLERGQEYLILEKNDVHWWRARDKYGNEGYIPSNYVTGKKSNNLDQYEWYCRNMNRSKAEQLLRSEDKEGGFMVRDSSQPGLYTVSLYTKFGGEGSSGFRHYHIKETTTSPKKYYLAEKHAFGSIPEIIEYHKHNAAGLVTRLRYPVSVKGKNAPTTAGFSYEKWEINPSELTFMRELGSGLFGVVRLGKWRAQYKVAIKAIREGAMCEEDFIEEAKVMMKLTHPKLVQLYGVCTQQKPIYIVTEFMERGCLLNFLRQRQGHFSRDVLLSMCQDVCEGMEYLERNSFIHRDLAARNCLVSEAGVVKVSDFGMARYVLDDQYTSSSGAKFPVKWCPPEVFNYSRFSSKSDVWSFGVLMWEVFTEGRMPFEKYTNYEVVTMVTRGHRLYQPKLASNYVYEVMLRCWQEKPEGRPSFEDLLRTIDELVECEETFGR
Sequence of UniProt P17948 (whole entry, looked up): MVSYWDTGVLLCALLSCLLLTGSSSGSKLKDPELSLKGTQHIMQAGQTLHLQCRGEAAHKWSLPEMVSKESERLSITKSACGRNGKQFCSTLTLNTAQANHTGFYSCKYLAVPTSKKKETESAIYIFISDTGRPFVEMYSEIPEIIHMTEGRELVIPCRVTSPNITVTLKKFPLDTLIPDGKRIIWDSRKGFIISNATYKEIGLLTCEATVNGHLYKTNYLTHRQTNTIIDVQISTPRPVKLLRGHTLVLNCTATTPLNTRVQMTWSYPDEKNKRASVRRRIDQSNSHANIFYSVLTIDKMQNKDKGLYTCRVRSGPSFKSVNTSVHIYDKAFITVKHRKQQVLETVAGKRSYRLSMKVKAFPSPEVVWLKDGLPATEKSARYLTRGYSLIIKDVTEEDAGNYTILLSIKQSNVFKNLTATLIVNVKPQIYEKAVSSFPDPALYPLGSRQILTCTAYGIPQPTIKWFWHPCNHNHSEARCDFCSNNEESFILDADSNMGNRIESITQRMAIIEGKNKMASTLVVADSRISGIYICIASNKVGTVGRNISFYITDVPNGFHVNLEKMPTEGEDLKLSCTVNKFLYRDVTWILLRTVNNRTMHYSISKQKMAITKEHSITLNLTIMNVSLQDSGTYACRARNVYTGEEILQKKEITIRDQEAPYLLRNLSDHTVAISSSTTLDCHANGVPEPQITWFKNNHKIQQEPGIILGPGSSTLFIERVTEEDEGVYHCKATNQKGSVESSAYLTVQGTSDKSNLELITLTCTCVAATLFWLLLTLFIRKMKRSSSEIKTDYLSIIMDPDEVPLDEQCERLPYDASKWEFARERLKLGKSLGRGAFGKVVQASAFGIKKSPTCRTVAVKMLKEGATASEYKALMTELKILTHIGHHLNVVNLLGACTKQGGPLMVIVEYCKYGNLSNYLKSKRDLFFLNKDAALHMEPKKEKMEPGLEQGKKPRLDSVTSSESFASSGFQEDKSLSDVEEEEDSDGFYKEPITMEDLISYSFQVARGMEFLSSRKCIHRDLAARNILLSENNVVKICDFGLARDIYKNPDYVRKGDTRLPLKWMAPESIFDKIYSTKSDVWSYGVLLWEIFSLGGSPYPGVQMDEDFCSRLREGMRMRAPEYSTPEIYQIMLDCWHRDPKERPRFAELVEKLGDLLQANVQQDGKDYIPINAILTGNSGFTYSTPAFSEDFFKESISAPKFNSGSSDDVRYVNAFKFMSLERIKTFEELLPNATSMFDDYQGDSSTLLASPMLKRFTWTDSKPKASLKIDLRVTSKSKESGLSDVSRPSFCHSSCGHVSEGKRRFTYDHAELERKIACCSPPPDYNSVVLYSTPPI
Sequence of UniProt P08069 (whole entry, looked up): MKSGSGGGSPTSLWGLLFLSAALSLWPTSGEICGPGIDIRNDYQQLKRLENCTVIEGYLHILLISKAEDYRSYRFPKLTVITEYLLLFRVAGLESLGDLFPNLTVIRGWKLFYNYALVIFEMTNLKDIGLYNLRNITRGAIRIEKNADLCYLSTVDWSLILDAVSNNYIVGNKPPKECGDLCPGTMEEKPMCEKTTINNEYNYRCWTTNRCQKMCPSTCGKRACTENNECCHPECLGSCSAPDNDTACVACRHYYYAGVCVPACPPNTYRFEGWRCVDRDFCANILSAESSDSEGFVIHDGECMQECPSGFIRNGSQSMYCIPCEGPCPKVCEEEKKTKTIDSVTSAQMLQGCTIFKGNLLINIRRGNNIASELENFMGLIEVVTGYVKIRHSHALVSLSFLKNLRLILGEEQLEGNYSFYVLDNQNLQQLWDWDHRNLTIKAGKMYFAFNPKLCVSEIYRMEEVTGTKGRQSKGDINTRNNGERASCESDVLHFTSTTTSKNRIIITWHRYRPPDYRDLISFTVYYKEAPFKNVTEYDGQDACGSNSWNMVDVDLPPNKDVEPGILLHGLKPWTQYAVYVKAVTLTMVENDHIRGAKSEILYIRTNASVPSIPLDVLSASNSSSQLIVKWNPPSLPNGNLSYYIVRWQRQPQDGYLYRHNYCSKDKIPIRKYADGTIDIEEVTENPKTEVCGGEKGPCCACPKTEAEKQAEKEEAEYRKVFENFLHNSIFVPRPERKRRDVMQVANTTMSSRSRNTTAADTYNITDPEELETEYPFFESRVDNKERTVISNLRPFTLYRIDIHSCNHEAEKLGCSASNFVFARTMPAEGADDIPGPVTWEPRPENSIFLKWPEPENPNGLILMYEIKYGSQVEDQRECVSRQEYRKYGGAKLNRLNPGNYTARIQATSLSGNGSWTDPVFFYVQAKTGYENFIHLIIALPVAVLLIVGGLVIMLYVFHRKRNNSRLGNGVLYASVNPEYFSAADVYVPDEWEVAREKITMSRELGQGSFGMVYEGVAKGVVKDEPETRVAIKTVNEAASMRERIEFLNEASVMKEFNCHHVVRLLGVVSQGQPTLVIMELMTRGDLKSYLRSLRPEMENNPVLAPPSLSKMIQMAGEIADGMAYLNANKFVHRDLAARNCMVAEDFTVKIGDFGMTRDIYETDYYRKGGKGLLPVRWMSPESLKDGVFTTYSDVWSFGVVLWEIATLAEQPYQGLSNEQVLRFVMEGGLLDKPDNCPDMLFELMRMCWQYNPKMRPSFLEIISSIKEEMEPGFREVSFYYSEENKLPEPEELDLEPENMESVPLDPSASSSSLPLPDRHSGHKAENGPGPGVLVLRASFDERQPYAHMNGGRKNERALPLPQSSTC
Sequence of UniProt Q14012 (whole entry, looked up): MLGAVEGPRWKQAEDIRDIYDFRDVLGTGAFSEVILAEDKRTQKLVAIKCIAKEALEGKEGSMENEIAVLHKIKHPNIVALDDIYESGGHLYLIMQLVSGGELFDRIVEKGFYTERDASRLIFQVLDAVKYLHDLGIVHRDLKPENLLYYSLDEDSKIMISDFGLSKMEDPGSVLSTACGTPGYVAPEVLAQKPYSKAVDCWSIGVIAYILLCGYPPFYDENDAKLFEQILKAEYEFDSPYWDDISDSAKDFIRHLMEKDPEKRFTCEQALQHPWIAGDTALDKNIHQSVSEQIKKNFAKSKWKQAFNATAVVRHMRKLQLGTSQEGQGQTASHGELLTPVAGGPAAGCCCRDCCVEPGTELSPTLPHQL
Sequence of UniProt P48730 (whole entry, looked up): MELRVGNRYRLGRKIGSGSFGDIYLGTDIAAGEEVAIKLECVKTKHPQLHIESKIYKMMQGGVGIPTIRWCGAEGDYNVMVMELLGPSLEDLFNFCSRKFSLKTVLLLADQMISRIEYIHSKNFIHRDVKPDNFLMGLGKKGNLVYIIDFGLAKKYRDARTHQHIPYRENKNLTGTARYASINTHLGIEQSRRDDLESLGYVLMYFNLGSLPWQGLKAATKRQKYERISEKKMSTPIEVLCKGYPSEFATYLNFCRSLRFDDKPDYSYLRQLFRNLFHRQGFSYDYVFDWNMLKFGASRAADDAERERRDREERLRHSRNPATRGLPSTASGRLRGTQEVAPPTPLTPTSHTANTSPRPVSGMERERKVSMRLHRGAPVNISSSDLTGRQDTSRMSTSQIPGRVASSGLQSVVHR
Sequence of UniProt P49674 (whole entry, looked up): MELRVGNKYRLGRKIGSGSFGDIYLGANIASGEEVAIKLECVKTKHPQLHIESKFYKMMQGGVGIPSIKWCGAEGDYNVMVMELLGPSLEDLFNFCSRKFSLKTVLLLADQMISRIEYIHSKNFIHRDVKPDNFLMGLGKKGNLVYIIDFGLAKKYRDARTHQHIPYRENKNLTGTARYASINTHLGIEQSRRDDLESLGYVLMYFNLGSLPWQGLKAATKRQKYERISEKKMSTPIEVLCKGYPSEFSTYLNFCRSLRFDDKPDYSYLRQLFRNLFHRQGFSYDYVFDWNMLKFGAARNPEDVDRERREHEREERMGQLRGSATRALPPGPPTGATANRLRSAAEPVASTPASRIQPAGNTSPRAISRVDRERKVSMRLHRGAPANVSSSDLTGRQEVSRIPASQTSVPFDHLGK

Series 1
Cell line: HaCaT
Concentration: 100 µM
Time: 36 h
CNC(=O)c1ccccc1Sc1ccc2c(/C=C/c3ccccn3)n[nH]c2c1 has a viability of 9.43%.
CCC(=O)OCC(=O)[C@@]1(OC(=O)CC)[C@@H](C)C[C@H]2[C@@H]3CCC4=CC(=O)C=C[C@]4(C)[C@@]3(Cl)[C@@H](O)C[C@@]21C has a viability of 79.6%.
For CN(C)CCCN1c2ccccc2Sc2ccccc21, the viability was 4.95%.
C[C@]12CC[C@@H]3c4ccc(OC(=O)c5ccccc5)cc4CC[C@H]3[C@@H]1CC[C@@H]2O has a viability of 4.37%.
With Nc1c2ccccc2nc2ccccc12 the viability was 4.48%.
For Cc1onc(-c2ccccc2Cl)c1C(=O)N[C@@H]1C(=O)N2[C@@H]1SC(C)(C)[C@@H]2C(=O)O, the viability was 91.3%.

Series 2
Structure (SMILES): CCN(CC)CCCCN1c2ccccc2Oc2ccc(Cl)cc21
Observed: enzyme activity
Mode: inhibitor
Concentration: 0.5 µM
Reference: control
CLK2 (Homo sapiens, UniProt P49760) — remaining activity: 105%.
For JAK1 (Homo sapiens, UniProt P23458): remaining activity read 105%.
It gave 87.7% for remaining activity (PAK1 (Homo sapiens, UniProt Q13153)).
CSNK1D (Homo sapiens, UniProt P48730) — remaining activity: 105%.
The remaining activity was 98.6% (RPS6KA3 (Homo sapiens, UniProt P51812)).
For TEC (Homo sapiens, UniProt P42680): remaining activity read 157%.
It gave 103% for remaining activity (TYRO3 (Homo sapiens, UniProt Q06418)).
EPHA2 (Homo sapiens, UniProt P29317) — remaining activity: 106%.
For MUSK (Homo sapiens, UniProt O15146): remaining activity read 103%.
It gave 89.4% for remaining activity (IGF1R (Homo sapiens, UniProt P08069)).
The remaining activity was 111% (SIK2 (Homo sapiens, UniProt Q9H0K1)).
MAP3K20 (Homo sapiens, UniProt Q9NYL2) — remaining activity: 94.4%.
CAMK1 (Homo sapiens, UniProt Q14012) — remaining activity: 101%.
It gave 112% for remaining activity (CSNK1E (Homo sapiens, UniProt P49674)).
It gave 97.5% for remaining activity (PRKCQ (Homo sapiens, UniProt Q04759)).
For SRPK1 (Homo sapiens, UniProt Q96SB4): remaining activity read 97.2%.
It gave 94.3% for remaining activity (FLT1 (Homo sapiens, UniProt P17948)).
Cyclin-dependent kinase 2, with cyclin E (CDK2, Homo sapiens, UniProt P24941) — remaining activity: 89.4%.
The remaining activity was 105% (SGK2 (Homo sapiens, UniProt Q9HBY8)).
The remaining activity was 110% (CLK1 (Homo sapiens, UniProt P49759)).

Series 3
Compound: CN(C)C(=O)Cn1cc(-c2nc(C3(c4ccc(-c5cnc(N)nc5)cc4)CC3)no2)cn1
Observed: cell-free assay
Method: competition with immobilised ligand
Concentration: 1 µM
The remaining binding was 49% (FLT3 (Homo sapiens, UniProt P36888, D835V)).
The remaining binding was 100% (ALK (Homo sapiens, UniProt Q9UM73, C1156Y)).
The remaining binding was 85% (KIT (Homo sapiens, UniProt P10721, D816H)).
It gave 97% for remaining binding (EGFR (Homo sapiens, UniProt P00533, L858R/T790M)).
WNK4 (Homo sapiens, UniProt Q96J92) — remaining binding: 80%.
Aurora kinase B (AURKB, Homo sapiens, UniProt Q96GD4) — remaining binding: 41%.
It gave 70% for remaining binding (EPHB2 (Homo sapiens, UniProt P29323)).
For SGK2 (Homo sapiens, UniProt Q9HBY8): remaining binding read 100%.
The remaining binding was 83% (BLK (Homo sapiens, UniProt P51451)).
For FLT3 (Homo sapiens, UniProt P36888, K663Q): remaining binding read 100%.
It gave 100% for remaining binding (CDK2 (Homo sapiens, UniProt P24941)).

Series 4
Cell line: mouse MPNST tumor cells
Method: high-content nuclear imaging
Refers to: cell number
Concentration: 10 µM
Time: 12 h
Notes: mean of 2 replicates
Reference: plate mean
Direction: higher = more cells
The nuclei count of CC(C)C[C@@H](C(=O)N[C@H](C(=O)OC1CCCC1)c1ccccc1)[C@H](O)C(=O)NO is reported as 0.704 z-score.
C/C(=C(\CCOP(=O)(O)O)SC(=O)c1ccccc1)N(C=O)Cc1cnc(C)nc1N has a nuclei count of 0.6 z-score.
The nuclei count of COc1ccc2[nH]c3c(-c4cccc5ccccc45)nccc3c2c1 is reported as -4.03 z-score.
For Cc1nc(-c2cnn(C)c2-c2ccc(C(F)(F)F)cn2)c2c(N3CCC3)ncnn12, the nuclei count was 0.353 z-score.

A few entries again (series 3):
It gave 97% for remaining binding (EGFR (Homo sapiens, UniProt P00533, L858R/T790M)).
The remaining binding was 100% (ALK (Homo sapiens, UniProt Q9UM73, C1156Y)).
For SGK2 (Homo sapiens, UniProt Q9HBY8): remaining binding read 100%.
The remaining binding was 85% (KIT (Homo sapiens, UniProt P10721, D816H)).
The remaining binding was 83% (BLK (Homo sapiens, UniProt P51451)).
It gave 100% for remaining binding (CDK2 (Homo sapiens, UniProt P24941)).
